Published values from different studies.
Lines come from different studies, so protocols differ. “And” joins repeats or separate records; there may be more than shown. ± gives the spread as reported.
U2AF2: U2AF2 148-342 (Homo sapiens, UniProt P26368)
UniProt P26368, sequence (whole entry, looked up): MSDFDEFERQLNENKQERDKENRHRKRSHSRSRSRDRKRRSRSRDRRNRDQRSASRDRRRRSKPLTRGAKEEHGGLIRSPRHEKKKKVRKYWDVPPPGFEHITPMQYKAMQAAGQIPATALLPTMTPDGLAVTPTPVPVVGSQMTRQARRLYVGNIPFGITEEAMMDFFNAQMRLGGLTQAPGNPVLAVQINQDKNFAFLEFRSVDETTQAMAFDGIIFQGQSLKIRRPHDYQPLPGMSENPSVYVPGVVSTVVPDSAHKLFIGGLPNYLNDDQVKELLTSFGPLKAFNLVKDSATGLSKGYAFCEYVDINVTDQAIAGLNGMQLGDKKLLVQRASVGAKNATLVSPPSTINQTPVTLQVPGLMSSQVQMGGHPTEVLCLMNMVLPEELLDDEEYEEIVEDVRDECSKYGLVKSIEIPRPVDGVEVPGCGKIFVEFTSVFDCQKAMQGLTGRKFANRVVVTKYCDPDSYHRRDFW
T1: TOA1/TOA2 1-286; 1-122 (Saccharomyces cerevisiae); chain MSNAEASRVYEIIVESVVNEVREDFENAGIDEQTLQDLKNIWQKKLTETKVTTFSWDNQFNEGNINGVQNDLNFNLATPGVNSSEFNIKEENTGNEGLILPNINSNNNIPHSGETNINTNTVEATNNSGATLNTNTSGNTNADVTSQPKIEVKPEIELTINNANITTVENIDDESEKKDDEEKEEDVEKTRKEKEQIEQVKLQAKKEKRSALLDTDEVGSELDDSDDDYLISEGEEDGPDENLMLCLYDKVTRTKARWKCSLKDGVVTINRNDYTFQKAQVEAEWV; chain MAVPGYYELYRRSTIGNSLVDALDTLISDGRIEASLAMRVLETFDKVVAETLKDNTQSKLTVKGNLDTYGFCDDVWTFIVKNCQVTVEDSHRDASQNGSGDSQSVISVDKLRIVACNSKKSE
B1: human SFPQ; sequence looked up; chain MSRDRFRSRGGGGGGFHRRGGGGGRGGLHDFRSPPPGMGLNQNRGPMGPGPGQSGPKPPIPPPPPHQQQQQPPPQQPPPQQPPPHQPPPHPQPHQQQQPPPPPQDSSKPVVAQGPGPAPGVGSAPPASSSAPPATPPTSGAPPGSGPGPTPTPPPAVTSAPPGAPPPTPPSSGVPTTPPQAGGPPPPPAAVPGPGPGPKQGPGPGGPKGGKMPGGPKPGGGPGLSTPGGHPKPPHRGGGEPRGGRQHHPPYHQQHHQGPPPGGPGGRSEEKISDSEGFKANLSLLRRPGEKTYTQRCRLFVGNLPADITEDEFKRLFAKYGEPGEVFINKGKGFGFIKLESRALAEIAKAELDDTPMRGRQLRVRFATHAAALSVRNLSPYVSNELLEEAFSQFGPIERAVVIVDDRGRSTGKGIVEFASKPAARKAFERCSEGVFLLTTTPRPVIVEPLEQLDDEDGLPEKLAQKNPMYQKERETPPRFAQHGTFEYEYSQRWKSLDEMEKQQREQVEKNMKDAKDKLESEMEDAYHEHQANLLRQDLMRRQEELRRMEELHNQEMQKRKEMQLRQEEERRRREEEMMIRQREMEEQMRRQREESYSRMGYMDPRERDMRMGGGGAMNMGDPYGSGGQKFPPLGGGGGIGYEANPGVPPATMSGSMMGSDMRTERFGQGGAGPVGGQGPRGMGPGTPAGYGRGREEYEGPNKKPRF
B2: human IGBP1; sequence looked up; chain AAEDELQLPRLPELFETGRQLLDEVEVATEPAGSRIVQEKVFKGLDLLEKAAEMLSQLDLFSRNEDLEEIASTDLKYLLVPAFQGALTMKQVNPSKRLDHLQRAREHFINYLTQCHCYHVAEFELPKTMNNSAENHTANSSMAYPSLVAMASQRQAKIQRYKQKKELEHRLSAMKSAVESGQADDERVREYYLLHLQRWIDISLEEIESIDQEIKILRERDSSREASTSNSSRQERPPVKPFILTRNMAQAKVFGAGYPSLPTMTVSDWYEQHRKYGALPDQGIAKAAPEEFRKAAQQQEEQEEKEEEDDEQTLHRAREWDDWKDTHPRGYGNRQNMG
B3: histone H1.3 human; sequence looked up; chain SETAPLAPTIPAPAEKTPVKKKAKKAGATAGKRKASGPPVSELITKAVAASKERSGVSLAALKKALAAAGYDVEKNNSRIKLGLKSLVSKGTLVQTKGTGASGSFKLNKKAASGEGKPKAKKAGAAKPRKPAGAAKKPKKVAGAATPKKSIKKTPKKVKKPATAAGTKKVAKSAKKVKTPQPKKAAKSPAKAKAPKPKAAKPKSGKPKVTKAKKAAPKKK
B4: serpin B4 (human); sequence looked up; chain MNSLSEANTKFMFDLFQQFRKSKENNIFYSPISITSALGMVLLGAKDNTAQQISKVLHFDQVTENTTEKAATYHVDRSGNVHHQFQKLLTEFNKSTDAYELKIANKLFGEKTYQFLQEYLDAIKKFYQTSVESTDFANAPEESRKKINSWVESQTNEKIKNLFPDGTIGNDTTLVLVNAIYFKGQWENKFKKENTKEEKFWPNKNTYKSVQMMRQYNSFNFALLEDVQAKVLEIPYKGKDLSMIVLLPNEIDGLQKLEEKLTAEKLMEWTSLQNMRETCVDLHLPRFKMEESYDLKDTLRTMGMVNIFNGDADLSGMTWSHGLSVSKVLHKAFVEVTEEGVEAAAATAVVVVELSSPSTNEEFCCNHPFLFFIRQNKTNSILFYGRFSSP
B5: CSRP2, human; sequence looked up; chain MPVWGGGNKCGACGRTVYHAEEVQCDGRSFHRCCFLCMVCRKNLDSTTVAIHDEEIYCKSCYGKKYGPKGYGYGQGAGTLNMDRGERLGIKPESVQPHRPTTNPNTSKFAQKYGGAEKCSRCGDSVYAAEKIIGAGKPWHKNCFRCAKCGKSLESTTLTEKEGEIYCKGCYAKNFGPKGFGYGQGAGALVHAQ
UniProt P29055, sequence (whole entry, looked up): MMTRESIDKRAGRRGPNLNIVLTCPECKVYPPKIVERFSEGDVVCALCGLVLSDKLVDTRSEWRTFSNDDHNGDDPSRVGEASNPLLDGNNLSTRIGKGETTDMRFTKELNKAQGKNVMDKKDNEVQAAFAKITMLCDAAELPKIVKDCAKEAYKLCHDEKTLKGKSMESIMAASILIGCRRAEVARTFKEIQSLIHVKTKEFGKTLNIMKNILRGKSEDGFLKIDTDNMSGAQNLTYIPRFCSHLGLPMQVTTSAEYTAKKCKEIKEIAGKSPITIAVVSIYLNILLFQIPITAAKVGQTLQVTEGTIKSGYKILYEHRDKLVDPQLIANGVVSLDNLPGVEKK

Molecule | target or system | test | system | setting | scale | measurement | value
CTCAGGAATTCCTGTAAAGTAATGTGGAGCTCAGTTCAAGTCAATCGGTCC (dsDNA; 5'-amino-C6 primer) | T1, TOA1/TOA2 1-286; 1-122 (Saccharomyces cerevisiae) | array | double-stranded DNA, one strand shown | TFIIA alone | – | Kd | 25.2 ± 6.28 nM
VVVGAVGVGK | HLA-A*11:01 peptide-β2M single-chain trimer | western blot, item: pMHC-I | peptide, 293T cells | 18 h, unit not given, added: 100 µg/mL cycloheximide | baseline: time zero | remaining protein | 0.896 and 0.905 and 0.87
GSGAGKESYV | construct, MBP fusion, human SCRIB, PDZ 3-4 | surface plasmon resonance | peptide | concentration not given | higher = stronger binding | normalised SPR binding response | 18.4 normalised RU
CAUUUUCUU (ssRNA) | U2AF2 | sequencing of bound RNA | RNA | motif only | – | Kd | 1640 nM
B1 (human SFPQ) | PP6C (human) | co-immunoprecipitation, IP-MS | CYB5R4 knockout cells | concentration not given | baseline: CYB5R4 knockout over parental | log2 fold change | -0.15
colistin | Acinetobacter baumannii | broth microdilution | clinical isolate RKI-No_14/16 | – | – | MIC | ≤ 0.5 µg/mL
human hnRNP K | PP6C (human) | co-immunoprecipitation, IP-MS | CYB5R4 knockout cells | concentration not given | baseline: CYB5R4 knockout over parental | log2 fold change | -0.92
SVWLRKETRV | construct, MBP fusion, human SCRIB, PDZ 3-4 | automated holdup | peptide, crude extract | concentration not given, uncorrected, unit not given | baseline: biotin control resin, higher = stronger binding | binding intensity | 0.487
VVVGASGVGK | HLA-A*11:01 peptide-β2M single-chain trimer | western blot, item: pMHC-I | peptide, 293T cells | 48 h, unit not given, added: 100 µg/mL cycloheximide | baseline: time zero | remaining protein | 0.518 and 0.535 and 0.558
B2 (human IGBP1) | PP6C (human) | co-immunoprecipitation, IP-MS | CYB5R4 knockout cells | concentration not given | baseline: CYB5R4 knockout over parental | log2 fold change | -0.0761
GEMVGQARILAQATSDLVNAIKDA | vinculin head domain Vd1 | complex rupture, AFM single-molecule force spectroscopy | peptide | double traces, C-terminal pulling, 800 nm/s | – | mean rupture force | 45.3 pN
GSGAGIESNV | construct, MBP fusion, human SCRIB, PDZ 3-4 | automated holdup | peptide, crude extract | concentration not given, uncorrected, unit not given | baseline: biotin control resin, higher = stronger binding | binding intensity | 0.789
B3 (histone H1.3 human) | PP6C (human) | co-immunoprecipitation, IP-MS | CYB5R4 knockout cells | concentration not given | baseline: CYB5R4 knockout over parental | log2 fold change | -1.6
KDECVIATEV | construct, MBP fusion, human SCRIB, PDZ 3-4 | automated holdup | peptide, purified PDZ protein | concentration not given, unit not given | baseline: biotin control resin, higher = stronger binding | binding intensity | 0.131
RSRKREIL | HLA-B8 | β2m complex dissociation | peptide | 37 °C | – | t1/2 | 1 h
CAAATGTATGCACCATATCCATTCTAAACATAGTTTCAAGTCAATCGGTCC (dsDNA; 5'-amino-C6 primer) | SUA7 full length assumed (Saccharomyces cerevisiae, UniProt P29055) | array | double-stranded DNA, one strand shown | TFIIB alone | – | Kd | 3.37 ± 2 nM
VVVGACGVGK | HLA-A*11:01 peptide-β2M single-chain trimer | western blot, item: pMHC-I | peptide, 293T cells | 48 h, unit not given, added: 100 µg/mL cycloheximide | baseline: time zero | remaining protein | 0.686 and 0.684
B4 (serpin B4) | PP6C (human) | co-immunoprecipitation, IP-MS | CYB5R4 knockout cells | concentration not given | baseline: CYB5R4 knockout over parental | log2 fold change | 0.46
phosphatidylinositol 3,4,5-trisphosphate | adenosine A2A receptor thermostabilised | equilibrium dialysis LC-MS | – | 5 µM, normalised z-score | baseline: no protein | log2 fold change | -0.377
QSARYRDTEL | construct, MBP fusion, human SCRIB, PDZ 3-4 | automated holdup | peptide, crude extract | concentration not given, uncorrected, unit not given | baseline: biotin control resin, higher = stronger binding | binding intensity | 0.473
Relaxin | RXFP1 signalosome | co-immunoprecipitation, item: AC2, AKAP79 | HEK293 expressing FLAG-RXFP1, AC2-HA | 10 nM, 5 min | – | decrease in association | 60%
UAUGUUUUC (ssRNA) | U2AF2 | sequencing of bound RNA | RNA | motif only | – | Kd | 5760 nM
B5 (CSRP2, human) | PP6C (human) | co-immunoprecipitation, IP-MS | CYB5R4 knockout cells | concentration not given | baseline: CYB5R4 knockout over parental | log2 fold change | -1.91
GSGAGKETEC | construct, MBP fusion, human SCRIB, PDZ 3-4 | automated holdup | peptide, crude extract | concentration not given, uncorrected, unit not given | baseline: biotin control resin, higher = stronger binding | binding intensity | 0.311
levan | F protein (Phormia regina) | binding, affinity electrophoresis | – | – | – | dissociation constant | 0.83%

Repeated from above:
Molecule | target or system | test | system | setting | scale | measurement | value
B4 (serpin B4) | PP6C (human) | co-immunoprecipitation, IP-MS | CYB5R4 knockout cells | concentration not given | baseline: CYB5R4 knockout over parental | log2 fold change | 0.46
phosphatidylinositol 3,4,5-trisphosphate | adenosine A2A receptor thermostabilised | equilibrium dialysis LC-MS | – | 5 µM, normalised z-score | baseline: no protein | log2 fold change | -0.377
QSARYRDTEL | construct, MBP fusion, human SCRIB, PDZ 3-4 | automated holdup | peptide, crude extract | concentration not given, uncorrected, unit not given | baseline: biotin control resin, higher = stronger binding | binding intensity | 0.473
